Published values of several laboratories.
± gives the spread as reported.
Target: Broad substrate specificity ATP-binding cassette transporter ABCG2 (ABCG2, Homo sapiens, UniProt Q9UNQ0)
Time: 30 min
Sequence (Q9UNQ0 1-655, as in one of the studies): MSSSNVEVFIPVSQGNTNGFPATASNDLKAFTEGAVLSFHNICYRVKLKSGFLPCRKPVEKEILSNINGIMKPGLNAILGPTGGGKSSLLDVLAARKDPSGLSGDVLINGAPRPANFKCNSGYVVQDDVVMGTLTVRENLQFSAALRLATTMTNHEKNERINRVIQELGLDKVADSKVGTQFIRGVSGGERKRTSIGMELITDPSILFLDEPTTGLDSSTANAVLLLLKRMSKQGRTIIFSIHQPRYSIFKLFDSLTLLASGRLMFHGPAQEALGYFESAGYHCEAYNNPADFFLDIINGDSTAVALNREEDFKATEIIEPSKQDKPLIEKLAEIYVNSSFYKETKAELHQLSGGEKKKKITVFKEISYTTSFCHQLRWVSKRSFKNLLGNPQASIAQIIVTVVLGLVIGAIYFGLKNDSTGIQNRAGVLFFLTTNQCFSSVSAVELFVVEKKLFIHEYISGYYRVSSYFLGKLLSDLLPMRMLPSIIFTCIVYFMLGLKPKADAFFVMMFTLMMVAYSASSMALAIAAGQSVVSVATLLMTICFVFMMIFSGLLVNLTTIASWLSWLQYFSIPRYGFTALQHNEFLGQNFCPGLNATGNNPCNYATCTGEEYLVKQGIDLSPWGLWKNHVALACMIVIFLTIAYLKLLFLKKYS

With COc1ccc(/C=C/C(=O)c2ccc3c(c2)OCO3)cc1OC the inhibition was 73.1 ± 4.5% (mitoxantrone efflux, flow cytometry; HEK293 transfected with ABCG2; 5 µM, with: mitoxantrone; baseline: 5 µM GF120918 as 100%).
CC(=O)OCCc1cc(O)c(O)c(-c2cc(CCOC(C)=O)cc(O)c2O)c1 gave an inhibition of 0.1 ± 1.8% (mitoxantrone transport, inhibitor; 10 µM, with: mitoxantrone 5 µM; baseline: Ko143 0.5 µM).
For O=C(/C=C/c1ccc(Br)cc1)c1ccc2ccccc2c1, the inhibition was 6.7 ± 1.3% (mitoxantrone efflux, flow cytometry; HEK293 transfected with ABCG2; 5 µM, with: mitoxantrone; baseline: 5 µM GF120918 as 100%).
O=C1CCCc2c1c1c(n2Cc2ccccc2)-c2ccccc2C1=O has an inhibition of 100 ± 14% (mitoxantrone efflux, inhibitor, flow cytometry; HEK293 transfected with ABCG2; 10 µM, with: mitoxantrone 5 µM; baseline: Ko143 1 µM).
COc1cc(C2=NOC(CN3CCC(N4CCCC4=O)c4ccccc43)C2)cc(OC)c1OC (stereo not shown) gave an inhibition of > 50% (mitoxantrone efflux, flow cytometry; HEK293 overexpressing ABCG2; 10 µM, with: mitoxantrone 10 µM).
CC(=O)OCCc1ccc(O)c(-c2cc(CCOC(C)=O)ccc2O)c1 gave an inhibition of 10.1 ± 2.7% (mitoxantrone transport, inhibitor; 10 µM, with: mitoxantrone 5 µM; baseline: Ko143 0.5 µM).
COc1cc(C2=NOC(CN3CCC(N4CCCC4=O)c4cc(Cl)ccc43)C2)cc(OC)c1OC (stereo not shown) has an inhibition of > 50% (mitoxantrone efflux, flow cytometry; HEK293 overexpressing ABCG2; 10 µM, with: mitoxantrone 10 µM).
The inhibition of COc1cc(O)c(C(=O)/C=C/c2ccc(F)cc2)c(OC)c1 is reported as 60.9 ± 6.7% (mitoxantrone efflux, flow cytometry; HEK293 transfected with ABCG2; 5 µM, with: mitoxantrone; baseline: 5 µM GF120918 as 100%).
For CC(C)n1c2c(=O)ccc(=O)c2c2c(=O)c3ccccc3c21, the inhibition was 36% (mitoxantrone efflux, inhibitor, flow cytometry; HEK293 transfected with ABCG2; 10 µM, with: mitoxantrone 5 µM; baseline: Ko143 1 µM).
The inhibition of O=C1CCCN1C1CCN(CC2CC(c3ccccc3)=NO2)c2ccccc21 (stereo not shown) is reported as > 50% (mitoxantrone efflux, flow cytometry; HEK293 overexpressing ABCG2; 10 µM, with: mitoxantrone 10 µM).

For quick reference, copied from above:
COc1cc(C2=NOC(CN3CCC(N4CCCC4=O)c4ccccc43)C2)cc(OC)c1OC (stereo not shown) gave an inhibition of > 50% (mitoxantrone efflux, flow cytometry; HEK293 overexpressing ABCG2; 10 µM, with: mitoxantrone 10 µM).
